Assay results from different studies.
Numbered parts are unrelated; each lists some results of a single study. Positions count from the first letter of the parent shown.

Set 1 — method: RNA Bind-n-Seq; form: RNA; matrix: in vitro; tested at: 20 nM; notes: 6-mer, flanks averaged, single round; with: 150 mM LiCl; reference: input library; reading: higher = stronger binding
Target: TAR DNA-binding protein 43, full length, His tag (TARDBP, Homo sapiens, UniProt Q13148, residues 1-414)
Sequence | 6-mer enrichment (R)
GUAGUC | 0.935
AAAGUC | 0.815
AGAUCG | 0.937
CUACGU | 0.882
UGCCUU | 1.12
GGCCGU | 1
CAUGAA | 0.887
CGUAUA | 0.902
UAUAUU | 1.11
CGGGUU | 0.991
AAAAAA | 1.25
GAGAUC | 0.898
GGGUCU | 1
CGCCGG | 0.934
UUUUCU | 1.28
UCUAAC | 0.828
UACAGU | 0.877

Set 2 — method: DHFR PCA, deep sequencing; matrix: yeast; with: (+)-ABA 2500 µM; reference: wild-type fitted maximum; reading: higher = stronger binding
Target: ABI1, truncated, D143A, DHFR fusion (Arabidopsis thaliana)
Notes: methotrexate growth selection, single substitutions
Starting sequence: PYL1, truncated, DHFR fusion (Arabidopsis thaliana); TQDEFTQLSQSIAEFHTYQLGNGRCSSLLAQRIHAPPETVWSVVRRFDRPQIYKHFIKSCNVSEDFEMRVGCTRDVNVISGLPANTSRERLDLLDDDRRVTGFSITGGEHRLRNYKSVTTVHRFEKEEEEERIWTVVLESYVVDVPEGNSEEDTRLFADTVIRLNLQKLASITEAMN
Variant | relative binding score [%]
L112M | 100
Q7F | 81.1
N149S | 92.4
L28V | 94.4
R88I | 101
D65T | 93
L20E | 102
I57H | 66
S87D | 19.7
G107I | 55.6
N61V | 98.9
L169V | 72.1
N165F | 37.1
R111T | 62.9
D97P | 97.8
K54R | 77.8

Set 3 — target: CREBRF, bZIP domain (human); method: DHFR protein complementation; matrix: yeast; reference: wild-type JUN-FOS pair; reading: higher = stronger binding
Notes: single substitutions, most at no-binding floor
Starting sequence: JUN, bZIP domain (human); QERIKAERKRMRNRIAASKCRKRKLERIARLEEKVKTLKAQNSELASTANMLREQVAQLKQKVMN; partner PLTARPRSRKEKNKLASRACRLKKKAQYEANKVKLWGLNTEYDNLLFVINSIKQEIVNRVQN
Variant | binding fitness
K34T | -1.23 natural log
E32W | -1.55 natural log
Q55K | -1.28 natural log
L38P | -1.54 natural log
A40K | -1.37 natural log
E32D | -1.28 natural log
M51W | -1.47 natural log
Q55E | -1.52 natural log
A40V | -1.29 natural log
A46F | -1.53 natural log
L38R | -1.45 natural log
E32P | -1.52 natural log
L45K | -1.56 natural log
A49P | -1.5 natural log
E44S | -1.61 natural log
R30M | -1.51 natural log
N42R | -1.46 natural log
Q41V | -1.42 natural log
S43W | -1.47 natural log
M51I | -1.52 natural log
A29Y | -1.43 natural log
Q41T | -1.5 natural log

Set 4 — method: RNA Bind-n-Seq; form: RNA; matrix: in vitro; tested at: 200 nM; notes: whole 134-nt RNA, ends assumed; with: 150 mM LiCl; reference: input library; reading: higher = stronger binding; library: 7-deaza-guanosine replaces G
Target: Ras GTPase-activating protein-binding protein 1, full length (G3BP1, Homo sapiens, UniProt Q13283)
Chain of UniProt Q13283 (whole entry, looked up): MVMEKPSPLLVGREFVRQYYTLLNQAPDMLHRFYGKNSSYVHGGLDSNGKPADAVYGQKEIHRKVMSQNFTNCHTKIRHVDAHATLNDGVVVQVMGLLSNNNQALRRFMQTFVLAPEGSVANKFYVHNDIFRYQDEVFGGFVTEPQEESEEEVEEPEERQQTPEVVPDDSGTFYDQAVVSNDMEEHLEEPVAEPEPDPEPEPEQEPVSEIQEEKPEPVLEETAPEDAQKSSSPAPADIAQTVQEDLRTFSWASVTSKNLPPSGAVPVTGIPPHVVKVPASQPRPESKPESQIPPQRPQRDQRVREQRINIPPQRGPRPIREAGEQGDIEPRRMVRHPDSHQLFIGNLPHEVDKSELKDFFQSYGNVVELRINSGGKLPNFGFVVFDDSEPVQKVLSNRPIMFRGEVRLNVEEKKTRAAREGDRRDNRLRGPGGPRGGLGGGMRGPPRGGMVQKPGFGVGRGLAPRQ
Shared flanks, not repeated: GGGAGUUCUACAGUCCGACGAUC … UGGAAUUCUCGGGUGUCAAGG
Sequence | log2 enrichment
AAGUCCUGUGCUACACAUCGUAUGUACCGAAUCGGGAGGGUUUUUGGGUUUUUGGGAAAGUAUUAUGUUACGCCGUUCGGAUCUGCACUU | -0.61
CCUGUGCUACACAUCGUAUGUACCGAAUCGGGGAAAAAGGGGAAAAAAAGGGGUUUGGGGAAAGUAUUAUGUUACGCCGUUCGGAUCUGC | -0.315
CCUGUGCUACACAUCGUAUGUACCGAAUCGGGGUUUUUUGGGUUUUUUGGUUUUUUGGGGAAAGUAUUAUGUUACGCCGUUCGGAUCUGC | 0.152
CCUGUGCUACACAUCGUAUGUACCGAAUCGGGGUUUGGGGUUUUUUUGGGGAAAAAGGGGAAAGUAUUAUGUUACGCCGUUCGGAUCUGC | 0.373
GCAGGAAGUAAAAACAAAUGGAAAUGCUUCGGAUAGUGGCAGGGGUGGGGGUUGCUAAGGAAAGGGUGGGAUGGGAAUGGGUAAAGAGUU | -0.338
AGUCCUGUGCUACACAUCGUAUGUACCGAAUCGGAAAAAGGAAAAAAAGGAAAAAGGAAAGUAUUAUGUUACGCCGUUCGGAUCUGCACU | -1.43
CUGUGCUACACAUCGUAUGUACCGAAUCGGAAAAAAAGGGGAAAAAAAGGAAAAAAAGGGGAAAGUAUUAUGUUACGCCGUUCGGAUCUG | -0.148
GCAGGAAGUAAAAACAAAUGGAAAUGCUUCGGAUAGUGGCAGGGGUGGGGGUUGCUAAGGAAAGGGUGGGAUGGGAGUGGGUAAAGAGUU | -0.252
CUGUGCUACACAUCGUAUGUACCGAAUCAAACCCCCCCAAACCCCCCCAAAUUUUUUUAAAAAAGUAUUAUGUUACGCCGUUCGGAUCUG | -0.751
CACAGACAACACGCACCCACACAGACACAGAGGGAAGGGGUUGGGAUGUGGACAGGGUGCACAGCAGGGCGGGGUAGGACCCCAGCCCCU | -1.51
UGCUAGGACUUGAUGGAUCACUAGUUUUUCUGGUAAGUAAAACUAAUUUUUUUUUUUUUUUUUUGAGACGGAAUCUCACUCUGUCACCCA | 1.35

Set 5 — method: protein binding microarray; form: double-stranded DNA, one strand shown; matrix: in vitro; tested at: not given; reference: not given; reading: higher = stronger binding
Target: Histone acetyltransferase KAT6A, both winged helices, GST fusion (KAT6A, Homo sapiens, UniProt Q92794, residues 1-181)
Notes: 8-mer, flanks averaged, mean of 2 arrays, mostly near background
Target sequence (chain): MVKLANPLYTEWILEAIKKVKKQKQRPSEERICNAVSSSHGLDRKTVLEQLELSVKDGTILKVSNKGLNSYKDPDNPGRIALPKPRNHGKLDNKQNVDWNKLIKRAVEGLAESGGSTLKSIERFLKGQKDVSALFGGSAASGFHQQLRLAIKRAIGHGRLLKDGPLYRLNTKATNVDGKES
Sequence | E-score
ATAACCGA | 0.0425
ACGGGCGA | 0.276
GATGGTGA | -0.232
ATCTCGGA | 0.0193
AGCAATGA | -0.18
ACGACCAT | -0.261
CGCAAACG | 0.159
CTAGTCAG | -0.266
ACTCTGTC | -0.0423
AATGCTTC | -0.0464
AACATACC | 0.0222
ATATTTTC | -0.000355
CCCACTGC | -0.133
GTCGGAAA | 0.161
ACAGGTCC | -0.0365
ACCGCAAG | 0.137
ATATTGGA | -0.152
AGCGTCAG | 0.0301
CGCAAGGC | 0.0151
AAGACGCA | 0.0191
CAGTGCCC | -0.0498
TACCTAAA | -0.099
GGCGGTCA | 0.194

Set 6 — target: CCNF, cyclin fold, Cln2 fusion (human); method: yeast growth competition, sequencing; matrix: yeast; notes: strong parent motif; reference: not given; reading: higher = stronger binding
Starting sequence: WEE1 docking peptide (human); HKTFRKLRLFDTP; partner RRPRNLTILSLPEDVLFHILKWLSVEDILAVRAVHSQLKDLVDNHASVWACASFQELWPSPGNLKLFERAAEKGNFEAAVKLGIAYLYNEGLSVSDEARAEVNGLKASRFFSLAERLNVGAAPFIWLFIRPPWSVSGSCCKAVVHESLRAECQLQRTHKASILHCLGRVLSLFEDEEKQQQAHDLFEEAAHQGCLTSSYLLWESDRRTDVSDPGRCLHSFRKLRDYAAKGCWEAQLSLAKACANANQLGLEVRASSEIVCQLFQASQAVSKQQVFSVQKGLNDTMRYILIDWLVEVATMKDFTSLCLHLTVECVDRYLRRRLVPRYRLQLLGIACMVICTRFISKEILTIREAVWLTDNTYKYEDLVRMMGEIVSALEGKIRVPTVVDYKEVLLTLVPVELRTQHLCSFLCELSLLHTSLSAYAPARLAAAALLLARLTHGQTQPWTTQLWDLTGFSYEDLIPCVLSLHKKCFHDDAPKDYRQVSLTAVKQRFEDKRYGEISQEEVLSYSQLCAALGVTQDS
Variant | normalised enrichment score
HKTFRKLRLFDTI [P13I] | 3.09
HKTFRKSRLFDTP [L7S] | 0.919
HKTFRKLRDFDTP [L9D] | 0.945
HKTFRKLSLFDTP [R8S] | 1.81
HKTFRKLRYFDTP [L9Y] | 3.4
HKTFRKLRLFSTP [D11S] | 1.87
HKTRRKLRLFDTP [F4R] | 5.67
HKTFFKLRLFDTP [R5F] | 1.63
HKTFRKLRLFDKP [T12K] | 2.22
WKTFRKLRLFDTP [H1W] | 2.58
HHTFRKLRLFDTP [K2H] | 1.92
HKTFRKTRLFDTP [L7T] | 0.963
HKTFRKLCLFDTP [R8C] | 2.83
HKTFRNLRLFDTP [K6N] | 2.65
HKTFRKLRLVDTP [F10V] | 1.19
HKTFRDLRLFDTP [K6D] | 0.994
HKTDRKLRLFDTP [F4D] | 1.68
FKTFRKLRLFDTP [H1F] | 1.56
HKTFWKLRLFDTP [R5W] | 1.67

Set 7 — method: RNA Bind-n-Seq; form: RNA; matrix: in vitro; tested at: 365 nM; reference: no-protein control; reading: higher = stronger binding
Target: RNA binding protein fox-1 homolog 2, RRM domain, GST-SBP tag (RBFOX2, Homo sapiens, UniProt O43251-10, residues 100-194)
Notes: natural RNA segment, single round, ends assumed
Shared flanks, not repeated: GGGAGUUCUACAGUCCGACGAUC … UGGAAUUCUCGGGUGCCAA
Sequence | RBNS enrichment (R)
CAAAGGUUUUUCUCUCUCUCAUUCAUAUCCAUACUAACAAGCAUGGUGGCUGGUGCCUCUCCCUAGGAAAGCUUUGGCGUCAUUCAACUCAAGUGUUCUUGUUCUUGUUG | 0.579
GAUAGGUAGAUGUGAGUAAAAAGAACAGGAAAAAAUUGCUUCUUUUAUUGGUUUCCAAAGAAACAAACCAAACCAACCAGCUCUUGGAUGUGAAGAUAAAAUAGUGCUUU | 1.07
CACCCCAAACAUCUUCAACAGCCGACUCUGGAUGACCUCGGGCCACUGGCAGCACUACAGCGAGAACAUGUUCUCCUUUGAGGUGGAGAAGGAGCUGUUUGCCCUGAAAC | 0.805
AAAGAAUUGAGAUUGUGUAUGGCAACCGUUAAUGAGGACAGCGCCUGAUGCCUUUUGUACCGAGGAAGAUAAUUGCCUCUUGUUUGACAAGUAGAGUUUAGUAGGUUAUU | 2.58
UGUUGGCCUCAGAGUCACUCCUGCCCCCUCUCCCUGACUUGGUGCUCACAUGCACCUCACUAGGGUUUGUGACCAGGGUCUGGAUGAGCUUGAAUUUGAAUGAAUUGAGU | 0.587
UUUCAGUAGUUUGAUCAGUUGAAGGCUAGAAGUGUGAAGUGCAGAUGAGUGUGUGUUCUUCCCCAAGGUCCCCCCACAGCUCCAGGACACCGCUGUCCUGGCAUUUGUGG | 0.664
UAGAGCUUCUGGCACUUGGAGACUUGUAUGAAAGAUGGCUGUGCCUCUGCCUGUCUCCCCCACCGGGCUGGGAGCUCUGCAGAGCAGGAAACAUGACUCGUAUAUGUCUC | 0.585
UAAGCUCUGUUACACUAGGUGUUAGAGUUCCAGAAUGUUCUUUUGUUUGCUAAACCUUGAAGAAACAUGUGCCUCAGCCUAGAUGUUUUGUCUUCUCUUUUCUGCACUUA | 0.595
GUAUGGUACUGGGGAAGUUUAUUCAUGCUUGCAAUCUUGUUUGGAAAUAAAAUGGGUCCGUCUGGAAGCAUGCCUCUGGCCCUUCCCUUGCCUGCACUGUCUGGUUCCAA | 12.6
UUAAUACUACAAAACUAGGAAAAUCAGAACUCAUGGCCAUUUCCUGCCCUCCUCCAACUUGUUAAAACAUGUUUAUUCUAAAGUUCGAAUGGAUAAAUUUGAGUAUAAAG | 0.404
UCUCCUGUGGAAGGGUCCCGGAACAUAUGCAUGGCGUCUGCUCGCGGCAGGUGGCAGGUGGUGUUGGGGAUGGUCCUGGAGGGGAUGGCCUGGGCAUACGCCGCCUCCAG | 2.33
AACGAAAUAACCUUUAUUGAAAUAAAGAUACUAUGCAAGAAAAUGUACAGUUGUCGAAGUGGAGAAAAUGAGGAUAUAUUCUUGCAGACGAGCUAUAGGUCAUACAUGAA | 0.553

Single results of other studies
Substance | target | test | system | setting | how to read | measurement | result
PhoQ, residues 284 288 289 292 302 303 AAQSYM | PhoP, residues 12 14 15 18 19 GHCSL (Escherichia coli, UniProt P23836) | Sort-seq, refers to: YFP reporter | E. coli | PhoQ-PhoP variant library, with: 10 µM Mg2+ | reference: high Mg2+ state, higher = stronger signaling | fold induction | 11.6

Repeated from above (set 5):
Sequence | E-score
AATGCTTC | -0.0464
AACATACC | 0.0222
ATATTTTC | -0.000355
CCCACTGC | -0.133
GTCGGAAA | 0.161
ACAGGTCC | -0.0365
ACCGCAAG | 0.137
ATATTGGA | -0.152
AGCGTCAG | 0.0301
CGCAAGGC | 0.0151
AAGACGCA | 0.0191
CAGTGCCC | -0.0498
